Experimental data gathered from unrelated publications.
Every numbered part comes from another study and shows a few of its results, in no order.
UniProt P08908, sequence (whole entry, looked up): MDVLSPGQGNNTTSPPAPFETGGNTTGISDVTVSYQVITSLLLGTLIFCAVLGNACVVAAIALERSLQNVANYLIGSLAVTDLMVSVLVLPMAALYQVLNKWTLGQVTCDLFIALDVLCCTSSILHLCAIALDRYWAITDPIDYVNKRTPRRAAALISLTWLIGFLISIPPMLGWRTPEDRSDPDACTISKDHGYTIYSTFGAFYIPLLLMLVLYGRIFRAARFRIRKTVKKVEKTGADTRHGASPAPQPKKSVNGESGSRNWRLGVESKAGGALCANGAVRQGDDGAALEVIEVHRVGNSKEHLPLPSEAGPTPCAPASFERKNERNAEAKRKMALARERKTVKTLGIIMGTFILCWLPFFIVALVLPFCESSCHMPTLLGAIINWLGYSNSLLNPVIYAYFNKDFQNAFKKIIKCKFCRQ
UniProt P23975, sequence (whole entry, looked up): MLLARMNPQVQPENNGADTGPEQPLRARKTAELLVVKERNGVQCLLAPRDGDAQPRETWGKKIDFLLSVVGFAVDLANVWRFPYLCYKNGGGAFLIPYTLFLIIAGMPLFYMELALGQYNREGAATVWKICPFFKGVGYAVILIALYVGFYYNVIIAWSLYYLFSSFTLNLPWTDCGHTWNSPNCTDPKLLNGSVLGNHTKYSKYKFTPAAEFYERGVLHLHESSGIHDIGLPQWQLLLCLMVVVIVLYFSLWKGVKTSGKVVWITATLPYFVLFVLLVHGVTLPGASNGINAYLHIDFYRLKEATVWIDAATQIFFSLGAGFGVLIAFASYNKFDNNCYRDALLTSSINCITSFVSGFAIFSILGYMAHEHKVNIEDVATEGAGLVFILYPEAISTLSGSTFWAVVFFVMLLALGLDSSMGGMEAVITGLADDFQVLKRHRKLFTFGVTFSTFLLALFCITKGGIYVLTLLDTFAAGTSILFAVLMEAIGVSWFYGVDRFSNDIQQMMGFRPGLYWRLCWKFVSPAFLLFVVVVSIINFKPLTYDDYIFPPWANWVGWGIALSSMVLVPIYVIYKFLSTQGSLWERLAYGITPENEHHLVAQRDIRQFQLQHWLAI
UniProt P9WI81, sequence (whole entry, looked up): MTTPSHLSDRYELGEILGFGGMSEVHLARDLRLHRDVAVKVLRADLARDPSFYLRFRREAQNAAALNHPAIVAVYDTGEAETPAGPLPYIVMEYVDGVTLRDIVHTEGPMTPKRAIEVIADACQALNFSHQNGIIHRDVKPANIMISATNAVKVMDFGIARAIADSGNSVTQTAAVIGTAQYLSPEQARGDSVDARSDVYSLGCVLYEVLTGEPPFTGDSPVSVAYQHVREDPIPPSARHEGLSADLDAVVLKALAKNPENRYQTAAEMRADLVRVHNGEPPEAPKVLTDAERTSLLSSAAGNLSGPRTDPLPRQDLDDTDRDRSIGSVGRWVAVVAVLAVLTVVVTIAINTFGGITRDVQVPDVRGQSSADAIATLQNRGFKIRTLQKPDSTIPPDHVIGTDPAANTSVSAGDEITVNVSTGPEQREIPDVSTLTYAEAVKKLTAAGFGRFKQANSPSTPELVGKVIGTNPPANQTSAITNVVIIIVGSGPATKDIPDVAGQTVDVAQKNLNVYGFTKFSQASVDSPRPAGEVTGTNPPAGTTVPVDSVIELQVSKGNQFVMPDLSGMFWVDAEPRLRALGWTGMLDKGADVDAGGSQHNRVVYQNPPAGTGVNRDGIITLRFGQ
UniProt P61075, sequence (whole entry, looked up): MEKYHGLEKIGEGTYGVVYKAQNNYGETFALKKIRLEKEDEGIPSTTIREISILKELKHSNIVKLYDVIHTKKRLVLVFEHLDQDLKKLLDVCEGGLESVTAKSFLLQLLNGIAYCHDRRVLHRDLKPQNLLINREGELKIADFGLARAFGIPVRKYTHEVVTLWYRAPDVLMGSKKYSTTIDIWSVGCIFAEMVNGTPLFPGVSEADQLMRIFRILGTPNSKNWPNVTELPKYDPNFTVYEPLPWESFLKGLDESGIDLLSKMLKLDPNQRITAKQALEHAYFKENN

Sample 1
Target: panel of 300 human kinases
Concentration: 0.5 µM
Reading: higher = more selective
| Compound | Gini score |
| --- | --- |
| COC(=O)[C@]1(O)C[C@@H]2O[C@@]1(C)n1c3ccccc3c3c4c(c5c6ccccc6n2c5c31)C(=O)NC4 | 0.29 |
| CO[C@@H]1[C@H](N(C)C(=O)c2ccccc2)C[C@H]2O[C@]1(C)n1c3ccccc3c3c4c(c5c6ccccc6n2c5c31)C(=O)NC4 | 0.52 |
| CCn1cnc2c(Nc3cccc(Cl)c3)nc(N[C@H]3CCCC[C@H]3N)nc21 | 0.63 |
| COc1ccc2c(c1)/C(=C/c1cnc[nH]1)C(=O)N2 | 0.64 |
| O=C1Nc2ccc3ncsc3c2/C1=C/c1cnc[nH]1 | 0.44 |

Sample 2
Cell line: HEK-293T/ACE2
Concentration: 10 µM
Time: 16 h
Reference: vehicle
| SMILES | viability |
| --- | --- |
| C[C@]12C=CC(=O)C=C1CC[C@@H]1[C@@H]2[C@@H](O)C[C@@]2(C)[C@H]1CC[C@]2(O)C(=O)CO | 104% |
| CC[C@H]1OC(=O)[C@H](C)[C@@H](O[C@H]2C[C@@](C)(OC)[C@@H](O)[C@H](C)O2)[C@H](C)[C@@H](O[C@@H]2O[C@H](C)C[C@H](N(C)C)[C@H]2O)[C@](C)(OC)C[C@@H](C)C(=O)[C@H](C)[C@@H](O)[C@]1(C)O | 101% |
| CCC(C)(C)C(=O)O[C@H]1C[C@@H](C)C=C2C=C[C@H](C)[C@H](CC[C@@H]3C[C@@H](O)CC(=O)O3)[C@H]21 | 110% |
| CCCCCOC(=O)Nc1nc(=O)n([C@@H]2O[C@H](C)[C@@H](O)[C@H]2O)cc1F | 101% |
| CC(=O)N1CCN(c2ccc(OCC3COC(Cn4ccnc4)(c4ccc(Cl)cc4Cl)O3)cc2)CC1 (stereo not shown) | 104% |
| CC(C)NCC(O)COc1cccc2[nH]ccc12 (stereo not shown) | 98.3% |
| Cc1cccn2c(=O)c(-c3nnn[nH]3)cnc12 | 100% |
| COc1cc(C(C)=O)ccc1OCCCN1CCC(c2noc3cc(F)ccc23)CC1 | 99.8% |
| O=C1OC2(c3ccc(O)cc3Oc3cc(O)ccc32)c2ccccc21 | 98.3% |
| CCC(=O)OCC(=O)[C@@]1(OC(=O)CC)[C@@H](C)C[C@H]2[C@@H]3CCC4=CC(=O)C=C[C@]4(C)[C@@]3(F)[C@@H](O)C[C@@]21C | 101% |
| Cc1ncc(CO)c(CO)c1O | 99.5% |
| CCCNC(C)C(=O)Nc1ccccc1C (stereo not shown) | 99.3% |
| NC(=O)c1cnccn1 | 101% |
| COc1cc(C)c(/C=C/C(C)=C/C=C/C(C)=C/C(=O)O)c(C)c1C | 101% |
| NC(=O)c1cccnc1 | 101% |
| CCOc1nc2cccc(C(=O)O)c2n1Cc1ccc(-c2ccccc2-c2nnn[nH]2)cc1 | 98.3% |

Sample 3
Organism: Sarcocystis neurona
Observed: parasite growth
Concentration: 10 µM
Time: 96 h
Reference: untreated
| SMILES | log2 fold change |
| --- | --- |
| O=c1[nH]cc(F)c(=O)[nH]1 | -2.44 |
| CCN(C(C)=O)c1cccc(-c2ccnc3c(C#N)cnn23)c1 | 0.26 |
| CC(C)N(CCC(C(N)=O)(c1ccccc1)c1ccccn1)C(C)C (stereo not shown) | 0.32 |
| c1ccc2c3c([nH]c2c1)CNCC3 | 0.33 |
| CNC1CC(c2ccc(Cl)c(Cl)c2)c2ccccc21 (stereo not shown) | -0.2 |
| CCCC(C)(COC(N)=O)COC(=O)NC(C)C (stereo not shown) | 0.34 |
| CN1CCCC(n2nc(Cc3ccc(Cl)cc3)c3ccccc3c2=O)CC1 (stereo not shown) | -2.57 |
| Oc1c(Cl)cc(Cl)c2cccnc12 | -4.75 |
| C[C@]12CCC(=O)C=C1CC[C@@H]1[C@@H]2CC[C@@]2(C)[C@H]1CC[C@]2(C)O | -0.22 |

Mixed results
| Structure (SMILES) | target | assay | conditions | quantity | value |
| --- | --- | --- | --- | --- | --- |
| CN(C)C(=O)Cn1cc(-c2nc([C@@](C)(c3ccc(-c4cnc(N)nc4)cc3)C3CC3)no2)cn1 | pknB (Mycobacterium tuberculosis, UniProt P9WI81) | cell-free assay, competition with immobilised ligand | 1 µM | remaining binding | 100% |
| C[C@H](c1ccnc(Nc2nc3ccc(-c4cc(N(C)C)ncn4)cc3[nH]2)c1)N1CCN(C(=O)CC(F)(F)F)CC1 | SLC6A2 (Homo sapiens, UniProt P23975) | ligand displacement | 10 µM | inhibition | -20% |
| Cc1nc(Cc2cccc(C(F)(F)F)c2)sc1-c1ccc(C(N)=O)nc1 | CRK2 (Plasmodium falciparum, UniProt P61075) | cell-free assay, competition with immobilised ligand | 1 µM | remaining binding | 100% |
| CC(=O)Nc1c(F)cc(C(=O)N[C@H]2CC[C@H](O)CC2)cc1O[C@@H](C)c1ccccc1 | HTR1A (Homo sapiens, UniProt P08908) | binding, radioligand binding | 10 µM | inhibition | -8.96% |

Repeated from above (sample 2):
| SMILES | viability |
| --- | --- |
| CC(=O)N1CCN(c2ccc(OCC3COC(Cn4ccnc4)(c4ccc(Cl)cc4Cl)O3)cc2)CC1 (stereo not shown) | 104% |
| CC(C)NCC(O)COc1cccc2[nH]ccc12 (stereo not shown) | 98.3% |
| Cc1cccn2c(=O)c(-c3nnn[nH]3)cnc12 | 100% |
